Experimental data of several laboratories.
T1: G-quadruplex DNA, monomeric G-quadruplex; GGTTAGGTTAGGTTAGG
T2: G-quadruplex DNA (Homo sapiens); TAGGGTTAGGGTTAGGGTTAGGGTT
T3: RNA riboswitch (Geobacter sulfurreducens); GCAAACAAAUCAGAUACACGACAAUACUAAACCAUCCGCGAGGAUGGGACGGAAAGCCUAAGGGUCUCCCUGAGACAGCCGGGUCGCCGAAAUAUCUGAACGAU
T4: RNA riboswitch U13C; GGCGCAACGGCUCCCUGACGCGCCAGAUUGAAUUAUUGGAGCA
T5: RNA aptamer; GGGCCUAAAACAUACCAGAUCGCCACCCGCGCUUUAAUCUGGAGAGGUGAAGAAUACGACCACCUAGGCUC
T6: RNA riboswitch (Lactobacillus rhamnosus); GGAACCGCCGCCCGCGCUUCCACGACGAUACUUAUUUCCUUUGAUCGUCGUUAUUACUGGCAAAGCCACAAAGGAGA
T7: G-quadruplex DNA (Homo sapiens); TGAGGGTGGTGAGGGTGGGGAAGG
T8: RNA aptamer A13U; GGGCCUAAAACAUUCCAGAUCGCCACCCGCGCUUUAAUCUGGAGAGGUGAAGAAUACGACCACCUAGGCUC
T9: RNA hairpin; CGCGAAAGCG

Cc1ccc(Cn2cc3c(-c4ccc5c(c4)OCO5)nnc-3c3cc4c(cc32)OCO4)cc1 — Kd (T1, G-quadruplex DNA, monomeric G-quadruplex; fluorescence titration; NaCl 100 mM): 34500 nM
C[n+]1cccc2cc(/C=N/NC(=O)c3ccc4ccc5ccc(C(=O)N/N=C/c6ccc7c(ccc[n+]7C)c6)nc5c4n3)ccc21 — Kd (T2, G-quadruplex DNA (Homo sapiens); Cy5 fluorescence quenching titration; pH 7.2, KCl 100 mM, first transition): 9.2 nM
Nc1nc2c(ncn2[C@@H]2O[C@@H]3COP(=O)(O)O[C@H]4[C@@H](N)[C@H](n5cnc6c(N)ncnc65)O[C@@H]4COP(=O)(O)O[C@H]3[C@H]2N)c(=O)[nH]1 — Kd (T3, RNA riboswitch (Geobacter sulfurreducens); competition gel shift; Mg2+ 10 mM, added: 32P c-AMP-GMP): 2500 nM
C[S+](CC[C@H](N)C(=O)O)C[C@H]1O[C@@H](n2cnc3c(N)ncnc32)[C@H](O)[C@@H]1O (stereo partly drawn) — Kd (T4, RNA riboswitch U13C; ITC; KCl 50 mM, one-site model): 18000 nM
CN(C)[C@@H]1C(=O)C(C(N)=O)=C(O)[C@@]2(O)C(=O)C3=C(O)c4c(O)cccc4[C@@](C)(O)[C@H]3C[C@@H]12 — Kd (T5, RNA aptamer; fluorescence titration; pH 7.5, 25 °C, MgCl2 10 mM): 0.77 nM
NCc1c[nH]c2nc(N)[nH]c(=O)c12 — Kd (T6, RNA riboswitch (Lactobacillus rhamnosus); ITC; pH 7.0, NaCl 0.10 M): 17.9 nM
C[n+]1ccc(/C=N/NC(=O)c2cncc(C(=O)N/N=C/c3cc[n+](C)c4ccccc34)n2)c2ccccc21 — Kd (T7, G-quadruplex DNA (Homo sapiens); Cy5 fluorescence quenching titration; pH 7.2, KCl 100 mM): 8.5 nM
C[C@H]1c2cccc(O)c2C(=O)C2=C(O)[C@]3(O)C(=O)C(C(N)=O)=C(O)[C@@H](N(C)C)[C@@H]3[C@@H](O)[C@@H]21 — Kd (T8, RNA aptamer A13U; fluorescence titration; pH 7.5, 25 °C, MgCl2 10 mM): 2420 nM
Nc1nc2c(ncn2[C@@H]2O[C@@H]3COP(=O)(O)O[C@H]4[C@@H](O)[C@H](n5cnc6c(N)ncnc65)O[C@@H]4COP(=O)(O)O[C@H]3[C@H]2O)c(=O)[nH]1 — Kd (T3, RNA riboswitch (Geobacter sulfurreducens); native gel shift; 4 °C, Mg2+ 10 mM, added: 32P c-AMP-GMP): 1.1 nM
C[n+]1ccc(Nc2ccc(NC(=O)c3ccc(Nc4cc[n+](C)c5ccc(N)cc45)cc3)cc2)cc1 — Kd (T9, RNA hairpin; fluorescence titration; 1000 nM, pH 7.0): > 200000 nM
Nc1nc2c(ncn2[C@@H]2O[C@@H]3COP(=O)(O)O[C@H]4[C@@H](O)[C@H](n5cnc6c(N)ncnc65)O[C@@H]4COP(=O)(O)O[C@H]3[C@H]2N)c(=O)[nH]1 — Kd (T3, RNA riboswitch (Geobacter sulfurreducens); competition gel shift; Mg2+ 10 mM, added: 32P c-AMP-GMP): 9 nM
C[C@@]1(O)c2cccc(O)c2-c2n[nH]c3c2[C@@H]1C[C@H]1CC(O)=C(C(N)=O)C(=O)[C@@]31O — Kd (T5, RNA aptamer; fluorescence titration; pH 7.5, 25 °C, MgCl2 10 mM): 0.46 nM

Excerpt of the above:
C[C@@]1(O)c2cccc(O)c2-c2n[nH]c3c2[C@@H]1C[C@H]1CC(O)=C(C(N)=O)C(=O)[C@@]31O — Kd (T5, RNA aptamer; fluorescence titration; pH 7.5, 25 °C, MgCl2 10 mM): 0.46 nM
